Measured values from different studies.
Compare with care: the assays were run in different laboratories.
Organism: Escherichia coli

Compound | test | system | setting | scale | MIC
CC[C@H](C)[C@H](NC(=O)[C@@H](NC(=O)[C@H](Cc1ccccc1)NC(=O)CNC(=O)[C@H](CCC(N)=O)NC(=O)[C@H](CCCCN)NC(=O)[C@H](C)N)C(C)C)C(=O)N[C@@H](Cc1ccc(O)cc1)C(=O)N[C@@H](CCCNC(=N)N)C(=O)N[C@H](C(=O)N[C@@H](CCCNC(=N)N)C(=O)N[C@H](C(=O)N[C@@H](CCCNC(=N)N)C(=O)N[C@@H](CCCNC(=N)N)C(=O)NCC(=O)N[C@@H](CC(N)=O)C(=O)N[C@@H](CCCNC(=N)N)C(=O)N[C@@H](CCCCN)C(N)=O)C(C)C)C(C)C | broth dilution | ATCC 25922, Mueller-Hinton broth | 24 h, 37 °C |  | 25 µM
CC1(C)S[C@@H]2[C@H](NC(=O)[C@H](N)c3ccccc3)C(=O)N2[C@H]1C(=O)O | broth microdilution | JW0790-2 fiu deletion mutant | ferric iron uptake gene |  | 6.25 µg/mL
CC[C@H](C)[C@H](N)C(=O)N[C@@H](CC(C)C)C(=O)NCC(=O)N[C@@H](CCC(=O)O)C(=O)N[C@H](C(=O)N[C@@H](Cc1c[nH]c2ccccc12)C(=O)N[C@@H](CCCCN)C(=O)NCC(=O)N[C@H](C(=O)N[C@@H](CCCCN)C(=O)N[C@@H](CC(=O)O)C(=O)N[C@H](C(=O)N[C@@H](CC(C)C)C(N)=O)[C@@H](C)CC)[C@@H](C)CC)[C@@H](C)CC | broth microdilution | ATCC 25922 | added: NaCl 150 mM |  | 100 µM
C/C(O)=C1\C(=O)C(CC(C)C)N(C(=O)C=Cc2ccccc2)C1=O (stereo not drawn) |  | K12 ΔtolC |  |  | 1.56 µg/mL
CC[C@H](C)[C@H](NC(=O)CN)C(=O)N[C@@H](C)C(=O)N[C@@H](CCCCN)C(=O)N[C@@H](Cc1ccccc1)C(=O)N[C@H](C(=O)N[C@@H](CCCCN)C(=O)N[C@@H](CCCCN)C(=O)N[C@H](C(=O)N[C@@H](C)C(=O)N[C@@H](CCCCN)C(=O)N[C@@H](C)C(=O)N[C@@H](CC(C)C)C(=O)N[C@@H](CCCNC(=N)N)C(N)=O)[C@@H](C)CC)[C@@H](C)CC |  | ATCC 25922, Mueller-Hinton broth | 12 h, 37 °C |  | 8 µg/mL
c1ccc(CCOC2CCCc3c2[nH]c2ccccc32)cc1 (stereo not drawn) | broth microdilution | MB5746 efflux-deficient hyperpermeable |  |  | > 32 µg/mL
CC1(C)CC[C@]2(C(=O)O)CC[C@]3(C)C(=CC[C@@H]4[C@@]5(C)CC[C@H](O)C(C)(C)[C@@H]5CC[C@]43C)[C@@H]2C1 |  | BL21 pET28a-TEM-1 |  |  | 512 µg/mL
COc1c(N2CC3CCCNC3C2)c(F)cc2c(=O)c(C(=O)OCc3cnc([N+](=O)[O-])s3)cn(C3CC3)c12 (stereo not drawn) |  | NR 48983, fluoroquinolone-resistant |  |  | > 97 µM
CC[C@H](C)[C@H](NC(=O)CNC(=O)[C@H](CC(=O)O)NC(=O)[C@H](CCCNC(=N)N)NC(=O)[C@@H](NC(=O)[C@H](CC(N)=O)NC(=O)[C@H](CCCNC(=N)N)NC(=O)CNC(=O)[C@@H](NC(=O)[C@H](CCCCN)NC(=O)[C@H](CCC(=O)O)NC(=O)[C@@H](NC(=O)[C@H](CCCCN)NC(=O)[C@H](CCCCN)NC(=O)[C@H](Cc1ccccc1)NC(=O)[C@@H](NC(=O)[C@H](CCCCN)NC(=O)[C@H](Cc1c[nH]c2ccccc12)NC(=O)[C@@H](N)CCCNC(=N)N)[C@@H](C)CC)[C@@H](C)CC)C(C)C)C(C)C)C(=O)N[C@H](C(=O)N[C@@H](CCCCN)C(=O)N[C@@H](C)C(=O)NCC(=O)N1CCC[C@H]1C(=O)N[C@@H](C)C(=O)N[C@H](C(=O)N[C@@H](C)C(=O)N[C@@H](C)C(=O)N[C@@H](C)C(=O)NCC(=O)N[C@@H](CCC(N)=O)C(=O)N[C@@H](C)C(=O)N[C@@H](C)C(=O)N[C@H](C(=O)N[C@H](C(=O)N[C@H](C(=O)N[C@@H](CCCCN)C(N)=O)C(C)C)C(C)C)[C@@H](C)O)C(C)C)[C@@H](C)CC |  | KCTC 1682, Mueller-Hinton broth | 16 h, 37 °C | growth inhibition over 99% | 2 µM
CC[C@H](C)[C@H](NC(=O)[C@H](CCCNC(=N)N)NC(=O)[C@H](Cc1ccc(O)cc1)NC(=O)CNC(=O)[C@H](Cc1ccc(O)cc1)NC(=O)[C@H](CCCNC(=N)N)NC(=O)[C@H](CC(C)C)NC(=O)[C@H](C)NC(=O)[C@H](CCC(N)=O)NC(=O)[C@H](CCC(=O)O)NC(=O)[C@@H](NC(=O)[C@H](CCC(N)=O)NC(=O)[C@H](CCCNC(=N)N)NC(=O)[C@H](CCSC)NC(=O)[C@H](Cc1ccc(O)cc1)NC(=O)[C@H](CCC(N)=O)NC(=O)[C@@H](N)CCCNC(=N)N)[C@@H](C)CC)C(=O)N[C@@H](CO)C(=O)N[C@@H](CCCNC(=N)N)C(=O)N[C@@H](CCCNC(=N)N)C(N)=O | broth dilution | K12 BW25113 |  |  | 5.9 µM
CC(C)C[C@@H](NC(=O)CNC(=O)[C@@H](CCCCN)NC(=O)[C@@H](CC(C)C)NC(=O)[C@@H](CCCCN)NC(=O)[C@@H](CCCNC(=N)N)NC(=O)[C@@H](CC(C)C)NC(=O)[C@@H](CC(C)C)NC(=O)[C@@H](CCCNC(=N)N)NC(=O)[C@H](N)CCCNC(=N)N)C(=O)N[C@H](CCCCN)C(=O)N[C@H](CCCCN)C(=O)N[C@H](Cc1ccc(O)cc1)C(=O)N[C@H](CC(C)C)C(=O)N[C@H](Cc1ccc(O)cc1)C(=O)N[C@H](Cc1ccccc1)C(=O)N[C@H](CCCCN)C(=O)N[C@H](CC(C)C)C(=O)N[C@H](CCC(N)=O)C(=O)N[C@H](CC(C)C)C(=O)N[C@H](CC(C)C)C(=O)N[C@H](CCCCN)C(=O)N[C@H](CCCCN)C(N)=O | broth microdilution | KCTC 1682, Mueller-Hinton broth | no added salt |  | 2 µM
CC[C@H](C)[C@H](NC(=O)[C@H](CCCNC(=N)N)NC(=O)[C@H](CO)NC(=O)[C@H](Cc1ccc(O)cc1)NC(=O)[C@@H](NC(=O)[C@@H](NC(=O)[C@H](C)NC(=O)CN)C(C)C)[C@@H](C)O)C(=O)N[C@@H](CO)C(=O)NCC(=O)N[C@@H](CCC(N)=O)C(=O)N[C@@H](Cc1ccc(O)cc1)C(=O)O | broth microdilution | ATCC 25922, Mueller-Hinton broth | 16 to 18 h, 37 °C |  | > 512 µM
CC[C@H](C)[C@H](NC(=O)CN)C(=O)NCC(=O)N[C@@H](C)C(=O)N[C@H](C(=O)N[C@@H](CC(C)C)C(=O)N[C@@H](CCCCN)C(=O)N[C@H](C(=O)N[C@@H](CC(C)C)C(=O)N[C@H](C(=O)N[C@H](C(=O)NCC(=O)N[C@@H](CC(C)C)C(=O)N1CCC[C@H]1C(=O)N[C@@H](C)C(=O)N[C@@H](CC(C)C)C(=O)N[C@H](C(=O)N[C@@H](CO)C(=O)N[C@@H](Cc1c[nH]c2ccccc12)C(=O)N[C@H](C(=O)N[C@@H](CCCCN)C(=O)N[C@@H](CCCNC(=N)N)C(=O)N[C@@H](CCCCN)C(=O)N[C@@H](CCCNC(=N)N)C(=O)N[C@@H](CCC(N)=O)C(=O)N[C@@H](CCC(N)=O)C(N)=O)[C@@H](C)CC)[C@@H](C)CC)[C@@H](C)O)[C@@H](C)O)C(C)C)C(C)C |  | KCTC 1682 | 16 h, 37 °C, Mueller-Hinton broth |  | 8 µM
CC(C)CC1NC(=O)C(C(=O)NC(C(=O)NC2C(=O)N3C2SC(C)(C)C3C(=O)O)c2ccccc2)=C1O (stereo not drawn) | broth microdilution | isolate IU 356 A, KPC-3, VIM-1, TEM | no clavulanic acid |  | > 200 µg/mL
C[C@H]1COCCN1c1nc(NCc2cccnc2C(F)(F)F)c2cccnc2n1 | broth microdilution | NCTC 86 |  |  | 128 µg/mL
CC(C)(O/N=C(\C(=O)N[C@@H]1C(=O)N2C(C(=O)[O-])=C(C[n+]3ccccc3)CS[C@H]12)c1csc(N)n1)C(=O)O |  | DH5a with empty vector |  |  | 0.5 µg/mL
CC[C@H](C)[C@H](NC(=O)[C@H](CCCNC(=N)N)NC(=O)[C@H](CCCNC(=N)N)NC(=O)[C@@H](N)CCCNC(=N)N)C(=O)N[C@@H](CO)C(=O)N[C@@H](Cc1ccccc1)C(=O)N[C@@H](CC(C)C)C(=O)NCC(=O)N[C@@H](CO)C(=O)N[C@@H](CCCCN)C(=O)N[C@H](C(=O)N[C@H](C(=O)N[C@H](C(=O)N[C@@H](CCCNC(=N)N)C(=O)N[C@@H](CCCNC(=N)N)C(=O)N[C@@H](CCCCN)C(=O)N[C@@H](CCCNC(=N)N)C(N)=O)C(C)C)C(C)C)C(C)C | checkerboard |  | 24 h, 37 °C, alone, rifampicin plate |  | 64 µM
C[C@@H](O)[C@H]1C(=O)N2C(C(=O)O)=C(S[C@@H]3CN[C@H](CNS(N)(=O)=O)C3)[C@H](C)[C@H]12 |  | BL21(DE3) wild type |  |  | < 0.09 µg/mL
CC[C@H](C)[C@H](NC(=O)CNC(=O)[C@H](CC(=O)O)NC(=O)[C@H](CCCNC(=N)N)NC(=O)[C@@H](NC(=O)[C@H](CC(N)=O)NC(=O)[C@H](CCCNC(=N)N)NC(=O)CNC(=O)[C@@H](NC(=O)[C@H](CCCCN)NC(=O)[C@H](CCC(=O)O)NC(=O)[C@@H](NC(=O)[C@H](CCCCN)NC(=O)[C@H](CCCCN)NC(=O)[C@H](Cc1ccccc1)NC(=O)[C@@H](NC(=O)[C@H](CCCCN)NC(=O)[C@H](Cc1c[nH]c2ccccc12)NC(=O)[C@@H](N)CCCNC(=N)N)[C@@H](C)CC)[C@@H](C)CC)C(C)C)C(C)C)C(=O)N[C@H](C(=O)N[C@@H](CCCCN)C(=O)N[C@@H](C)C(=O)N1CCC[C@H]1C(=O)N1CCC[C@H]1C(=O)N[C@@H](C)C(=O)N[C@H](C(=O)N[C@@H](C)C(=O)N[C@H](C(=O)N[C@H](C(=O)NCC(=O)N[C@@H](CCC(N)=O)C(=O)N[C@@H](C)C(=O)N[C@@H](C)C(=O)N[C@H](C(=O)N[C@H](C(=O)N[C@H](C(=O)N[C@@H](CCCCN)C(N)=O)C(C)C)C(C)C)[C@@H](C)O)C(C)C)C(C)C)C(C)C)[C@@H](C)CC |  | K1 ATCC 700973, Mueller-Hinton broth | 16 h, 37 °C | growth inhibition over 99% | 2 µM
O=C(O)CN(CC(=O)O)CC(=O)O |  | VIM-2 producer | 32 µg/mL, MIC of meropenem, added: meropenem |  | 0.25 µg/mL
CC[C@H](C)[C@H](NC(=O)[C@H](CC(N)=O)NC(=O)[C@H](Cc1ccccc1)NC(=O)[C@H](CCCNC(=N)N)NC(=O)[C@H](CCCNC(=N)N)NC(=O)[C@@H](N)CCCCN)C(=O)N[C@@H](CCCCN)C(=O)N[C@@H](CC(C)C)C(=O)N[C@@H](Cc1c[nH]c2ccccc12)C(=O)N[C@@H](CCCCN)C(=O)N[C@H](C(=O)N[C@@H](Cc1ccccc1)C(=O)O)[C@@H](C)O |  | K12 MG1655 |  |  | 50 µg/mL

For quick reference, copied from above:
Compound | test | system | setting | scale | MIC
CC1(C)S[C@@H]2[C@H](NC(=O)[C@H](N)c3ccccc3)C(=O)N2[C@H]1C(=O)O | broth microdilution | JW0790-2 fiu deletion mutant | ferric iron uptake gene |  | 6.25 µg/mL
CC[C@H](C)[C@H](N)C(=O)N[C@@H](CC(C)C)C(=O)NCC(=O)N[C@@H](CCC(=O)O)C(=O)N[C@H](C(=O)N[C@@H](Cc1c[nH]c2ccccc12)C(=O)N[C@@H](CCCCN)C(=O)NCC(=O)N[C@H](C(=O)N[C@@H](CCCCN)C(=O)N[C@@H](CC(=O)O)C(=O)N[C@H](C(=O)N[C@@H](CC(C)C)C(N)=O)[C@@H](C)CC)[C@@H](C)CC)[C@@H](C)CC | broth microdilution | ATCC 25922 | added: NaCl 150 mM |  | 100 µM
